{"data": "Published values of several laboratories", "note": "Parts stem from different laboratories: compare values within a part only. Substitutions count along the parent as printed."}
{"data": "Study 1", "target": "CCND2, cyclin fold, Cln2 fusion (human)", "technique": "yeast growth competition, sequencing", "matrix": "yeast", "setting": "weak parent motif", "reference": "not given", "direction": "higher = stronger binding", "starting sequence": "CDC25A docking peptide (human); PPHRRRLLFACSP"}
{"Substitution": "PPHRRRLLFATSP [C11T]", "normalised enrichment score": -0.132}
{"Substitution": "PPHRRRLLFACRP [S12R]", "normalised enrichment score": 0.265}
{"Substitution": "PPHRRMLLFACSP [R6M]", "normalised enrichment score": 0.416}
{"Substitution": "PPHRRFLLFACSP [R6F]", "normalised enrichment score": -0.186}
{"Substitution": "PPHRRRLLRACSP [F9R]", "normalised enrichment score": 0.467}
{"Substitution": "PPHRRRLLFACIP [S12I]", "normalised enrichment score": 0.129}
{"Substitution": "PPHARRLLFACSP [R4A]", "normalised enrichment score": 0.101}
{"Substitution": "PPHRRRLLFACSC [P13C]", "normalised enrichment score": 0.436}
{"Substitution": "PPHRRRLLFRCSP [A10R]", "normalised enrichment score": 0.183}
{"Substitution": "PEHRRRLLFACSP [P2E]", "normalised enrichment score": 0.265}
{"Substitution": "PPHRYRLLFACSP [R5Y]", "normalised enrichment score": -0.288}
{"Substitution": "VPHRRRLLFACSP [P1V]", "normalised enrichment score": -0.0962}
{"Substitution": "PPHRRRLLFYCSP [A10Y]", "normalised enrichment score": -0.383}
{"Substitution": "PPHRRRFLFACSP [L7F]", "normalised enrichment score": 0.0666}
{"Substitution": "EPHRRRLLFACSP [P1E]", "normalised enrichment score": 0.0546}
{"Substitution": "SPHRRRLLFACSP [P1S]", "normalised enrichment score": 0.0658}
{"Substitution": "PPERRRLLFACSP [H3E]", "normalised enrichment score": -0.14}
{"Substitution": "PPHRRRLLFFCSP [A10F]", "normalised enrichment score": 0.149}
{"Substitution": "PPHRRRLLFACSH [P13H]", "normalised enrichment score": 0.238}
{"Substitution": "KPHRRRLLFACSP [P1K]", "normalised enrichment score": 0.619}
{"Substitution": "PPHRRRLLFADSP [C11D]", "normalised enrichment score": -0.234}
{"Substitution": "PPHRRRLLFVCSP [A10V]", "normalised enrichment score": -0.13}
{"Substitution": "PPWRRRLLFACSP [H3W]", "normalised enrichment score": 0.109}
{"Substitution": "QPHRRRLLFACSP [P1Q]", "normalised enrichment score": -0.0105}
{"Substitution": "NPHRRRLLFACSP [P1N]", "normalised enrichment score": 0.112}
{"data": "Study 2", "target": "Fragile X messenger ribonucleoprotein 1, C-terminal low-complexity region (Fmr1, Mus musculus, UniProt P35922)", "technique": "RNA Bind-n-Seq", "molecule type": "RNA", "matrix": "in vitro", "concentration": "200 nM", "setting": "whole 134-nt RNA, ends assumed", "added": "150 mM LiCl", "reference": "input library", "direction": "higher = stronger binding", "each molecule": "7-deaza-guanosine replaces G"}
{"Strand": "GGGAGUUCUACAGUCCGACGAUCCCUGUGCUACACAUCGUAUGUACCGAAUCGGAAAAAAAGGGGAAAAAAAGGAAAAAAAGGGAAAGUAUUAUGUUACGCCGUUCGGAUCUGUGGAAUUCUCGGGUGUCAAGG", "log2 enrichment": -0.226}
{"Strand": "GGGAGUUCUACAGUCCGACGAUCCUGUGCUACACAUCGUAUGUACCGAAUCAAAUUUUUUUAAAUUUUUUUAAACCCCCCCAAAAAAGUAUUAUGUUACGCCGUUCGGAUCUGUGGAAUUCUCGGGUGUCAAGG", "log2 enrichment": 0.992}
{"Strand": "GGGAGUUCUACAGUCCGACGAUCCCUGUGCUACACAUCGUAUGUACCGAAUCGGGGUUUUUUUGGGGUUUUUGGGGAAAGGGGAAAGUAUUAUGUUACGCCGUUCGGAUCUGCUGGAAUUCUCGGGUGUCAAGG", "log2 enrichment": -0.159}
{"Strand": "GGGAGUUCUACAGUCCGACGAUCCCUCAAGUCCUGUGCUACACAUCGUAUGUACCGAAUCGGGAGGGGAGGAGGGAAAGUAUUAUGUUACGCCGUUCGGAUCUGCACUUCCAGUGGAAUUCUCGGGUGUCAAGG", "log2 enrichment": -0.559}
{"Strand": "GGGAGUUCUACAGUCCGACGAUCCACAGACAACACGCACCCACACAGACACAGAGGGAAGGGGUUGGGAUAGGGACAGGGUGCACAGCAGGGCGGGGUAGGACCCCAGCCCCUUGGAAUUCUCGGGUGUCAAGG", "log2 enrichment": 0.839}
{"Strand": "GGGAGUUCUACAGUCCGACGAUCAGUCCUGUGCUACACAUCGUAUGUACCGAAUCGGAAAAAAAGGAAAAAAAGGUUUGGAAAGUAUUAUGUUACGCCGUUCGGAUCUGCACUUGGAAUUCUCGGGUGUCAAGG", "log2 enrichment": -3.59}
{"Strand": "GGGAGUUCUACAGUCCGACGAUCCAAGUCCUGUGCUACACAUCGUAUGUACCGAAUCGGGAGGGUUUUUUUGGGUGGGAAAGUAUUAUGUUACGCCGUUCGGAUCUGCACUUCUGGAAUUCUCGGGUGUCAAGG", "log2 enrichment": -0.456}
{"Strand": "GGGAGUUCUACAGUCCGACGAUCUUUGUGAGACAUGUGAAAGGAGGACAUGGUCACAGUCAUGGACAUGGACACGCUCACAGUCAUACACGUGGAAGUCAUGGACAUGGAAGAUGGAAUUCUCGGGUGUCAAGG", "log2 enrichment": -4.19}
{"data": "Study 3", "target": "ABI1, truncated, D143A, DHFR fusion (Arabidopsis thaliana)", "technique": "DHFR PCA, deep sequencing", "matrix": "yeast", "setting": "methotrexate growth selection, single substitutions", "added": "(+)-ABA 17 µM", "reference": "wild-type fitted maximum", "direction": "higher = stronger binding", "starting sequence": "PYL1, truncated, DHFR fusion (Arabidopsis thaliana); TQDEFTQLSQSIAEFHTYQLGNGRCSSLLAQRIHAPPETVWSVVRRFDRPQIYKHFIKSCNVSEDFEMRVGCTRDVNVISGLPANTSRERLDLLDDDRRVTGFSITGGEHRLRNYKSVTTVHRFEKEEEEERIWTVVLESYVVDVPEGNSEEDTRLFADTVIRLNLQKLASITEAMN; partner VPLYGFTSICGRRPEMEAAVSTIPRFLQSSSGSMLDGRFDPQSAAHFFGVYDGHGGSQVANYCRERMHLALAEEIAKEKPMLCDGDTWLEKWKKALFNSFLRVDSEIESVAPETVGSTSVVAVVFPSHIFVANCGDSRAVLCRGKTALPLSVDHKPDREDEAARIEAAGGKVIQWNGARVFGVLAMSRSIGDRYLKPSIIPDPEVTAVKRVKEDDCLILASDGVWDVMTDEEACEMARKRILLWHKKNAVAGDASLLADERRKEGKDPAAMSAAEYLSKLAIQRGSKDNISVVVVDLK"}
{"Substitution": "S63C", "relative binding score": "82.4%"}
{"Substitution": "K168D", "relative binding score": "9.07%"}
{"Substitution": "E129V", "relative binding score": "86.4%"}
{"Substitution": "V76T", "relative binding score": "30%"}
{"Substitution": "I57M", "relative binding score": "23%"}
{"Substitution": "H34K", "relative binding score": "89.9%"}
{"Substitution": "Q2R", "relative binding score": "80.6%"}
{"Substitution": "T73Q", "relative binding score": "80.4%"}
{"Substitution": "D48Q", "relative binding score": "11.4%"}
{"Substitution": "H110F", "relative binding score": "5.97%"}
{"Substitution": "F66Y", "relative binding score": "73.3%"}
{"Substitution": "I79G", "relative binding score": "22.1%"}
{"data": "Study 4", "target": "Histone acetyltransferase KAT6A, winged helix 1, GST fusion (KAT6A, Homo sapiens, UniProt Q92794, residues 1-85)", "technique": "protein binding microarray", "molecule type": "double-stranded DNA, one strand shown", "matrix": "in vitro", "concentration": "not given", "setting": "8-mer, flanks averaged, mean of 2 arrays, mostly near background", "reference": "not given", "direction": "higher = stronger binding", "Construct (chain)": "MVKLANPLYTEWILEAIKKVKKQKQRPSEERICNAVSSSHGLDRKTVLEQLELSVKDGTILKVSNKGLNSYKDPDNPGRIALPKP"}
{"Strand": "CAGGAGAG", "E-score": -0.23}
{"Strand": "AACTCTGG", "E-score": -0.27}
{"Strand": "CCGTGGAG", "E-score": 0.25}
{"Strand": "CCTCATGA", "E-score": -0.157}
{"Strand": "GTTAAAAC", "E-score": 0.0193}
{"Strand": "AAAGCAAA", "E-score": -0.24}
{"Strand": "AGTCCGAC", "E-score": 0.0338}
{"Strand": "CGACGAGC", "E-score": 0.0225}
{"Strand": "AACATCGT", "E-score": -0.00613}
{"Strand": "ATTGAGGA", "E-score": -0.0373}
{"Strand": "ACGTAGGG", "E-score": -0.0985}
{"Strand": "ACCACGTG", "E-score": -0.11}
{"Strand": "ACTGCCCC", "E-score": -0.0125}
{"Strand": "AGCCTGAT", "E-score": -0.19}
{"Strand": "CGGGGCAA", "E-score": 0.0732}
{"Strand": "GCGGAGAC", "E-score": 0.338}
{"Strand": "AGTTTGGA", "E-score": -0.161}
{"Strand": "ATGCCGTG", "E-score": 0.287}
{"Strand": "CCCATGAG", "E-score": -0.135}
{"Strand": "CCCCGCAG", "E-score": 0.29}
{"Strand": "CTAAACCC", "E-score": -0.0915}
{"Strand": "AGGGGAGC", "E-score": -0.0963}
{"Strand": "AAGATGGC", "E-score": 0.0371}
{"Strand": "AACCGAAG", "E-score": -0.0514}
{"Strand": "AATCGCCA", "E-score": -0.0365}
{"note": "A few entries again (study 1):"}
{"Substitution": "PEHRRRLLFACSP [P2E]", "normalised enrichment score": 0.265}
{"Substitution": "PPHRYRLLFACSP [R5Y]", "normalised enrichment score": -0.288}
{"Substitution": "VPHRRRLLFACSP [P1V]", "normalised enrichment score": -0.0962}
{"Substitution": "PPHRRRLLFYCSP [A10Y]", "normalised enrichment score": -0.383}
{"Substitution": "PPHRRRFLFACSP [L7F]", "normalised enrichment score": 0.0666}
{"Substitution": "EPHRRRLLFACSP [P1E]", "normalised enrichment score": 0.0546}
{"Substitution": "SPHRRRLLFACSP [P1S]", "normalised enrichment score": 0.0658}
